Measured values from different studies.
Every numbered part comes from another study and shows a few of its results, in no order.
Chain of UniProt O00571 (132-607, looked up): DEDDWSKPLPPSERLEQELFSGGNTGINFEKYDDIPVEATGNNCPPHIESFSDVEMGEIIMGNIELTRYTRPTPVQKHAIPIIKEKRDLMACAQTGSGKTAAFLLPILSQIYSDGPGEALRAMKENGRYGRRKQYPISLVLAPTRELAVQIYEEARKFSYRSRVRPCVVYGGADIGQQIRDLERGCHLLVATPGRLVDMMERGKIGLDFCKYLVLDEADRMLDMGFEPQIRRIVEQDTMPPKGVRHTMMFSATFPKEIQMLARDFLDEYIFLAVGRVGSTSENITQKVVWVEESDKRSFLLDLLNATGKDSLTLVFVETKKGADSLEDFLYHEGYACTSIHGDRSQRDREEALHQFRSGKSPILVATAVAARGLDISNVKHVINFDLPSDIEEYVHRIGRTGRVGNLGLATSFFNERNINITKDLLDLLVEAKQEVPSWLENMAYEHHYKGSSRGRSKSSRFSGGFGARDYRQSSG

Block 1
Target: Replicase polyprotein 1ab, polymerase (rep, Severe acute respiratory syndrome coronavirus 2, UniProt P0DTD1)
Read-out: enzyme activity
Action: inhibitor
Tested at: 20 µM
SMILES	inhibition
Oc1nc(O)c2nc(O)[nH]c2n1	12%
COCc1nnc(N2CC(Oc3ccc(F)cc3Cl)C2)n1-c1ccc(OC)nc1	-4.29%
CNC(=O)N(C)N=O	1.6%
COc1ccc(-c2cc(=S)ss2)cc1	-11.5%
CNCCc1ccc(O)c(O)c1	-4.24%
Cc1ncc(C)n2nc([C@@H]3C[C@H]3c3nc4c5cccnc5ccn4c3C)nc12	-0.63%
C#Cc1cccc2c1c(C(=O)c1ccc(Cn3c(C)nc4cnccc43)c(F)c1)cn2C(=O)N(C)C	-7%
O=C(O)CCCCC(CCSCc1ccccc1)SCc1ccccc1 (stereo not shown)	4%
CC(=O)N(c1onc(C)c1C)S(=O)(=O)c1ccc(N)cc1	-4.62%
Cc1csc(-c2nnc(Nc3ccc(Oc4ncccc4-c4ccnc(N)n4)cc3)c3ccccc23)c1	5.51%
COC(=O)C[C@](O)(CCCC(C)(C)O)C(=O)O[C@@H]1C(OC)=C[C@]23CCCN2CCc2cc4c(cc2[C@H]13)OCO4	-2.2%
CCCCc1nc(C)c(CC(=S)N(C)C)c(=O)n1Cc1ccc(-c2ccccc2-c2nnn[nH]2)cc1	40.3%
CCC[N@+]12[C@H](O)[C@@H](CC)[C@@H]3C[C@H]1[C@@H]1N(C)c4ccccc4[C@]14C[C@H]2[C@H]3[C@H]4O	1.34%
FC(F)(F)c1cc(CO[C@H]2CCCN[C@H]2c2ccccc2)cc(C(F)(F)F)c1	-4.03%
Cc1ccccc1CN1C(=O)C2=C(CCN(Cc3ccccc3)C2)N2CCN=C12	-0.9%
CC(C)(O)c1ccn2c(-c3ccc(F)c(-c4ccc(F)cc4C#N)c3)cnc2c1F	-1.7%
FC(F)(F)c1ccc(N2CCNCC2)nc1Cl	-4.92%
CCOc1nc2cccc(C(=O)O)c2n1Cc1ccc(-c2ccccc2-c2noc(=O)[nH]2)cc1	-1.68%
Cc1ccccc1C(=O)Nc1ccc(C(=O)N2CCCC(N(C)C)c3ccccc32)cc1 (stereo not shown)	-3.7%
CC(C)(C)c1cc(C=C(C#N)C#N)cc(Br)c1O	-0.82%

Block 2
Target: Replicase polyprotein 1ab, main protease (rep, Severe acute respiratory syndrome coronavirus 2, UniProt P0DTD1)
Read-out: enzyme activity
Action: inhibitor
Tested at: 20 µM
SMILES	inhibition [%]
CC[C@H](CO)Nc1nc(NCc2ccc(-c3ccccn3)cc2)c2ncn(C(C)C)c2n1	1.59
O=C(O)[C@@H](S)[C@@H](S)C(=O)O	-8.73
CCn1c(-c2nonc2N)nc2cnc(Oc3cccc(NC(=O)c4ccc(OCCN5CCOCC5)cc4)c3)cc21	-11.9

Block 3
Target: Krueppel-like factor 3, full length (KLF3, Homo sapiens, UniProt P57682, residues 1-345)
Chain of UniProt P57682 (whole entry, looked up): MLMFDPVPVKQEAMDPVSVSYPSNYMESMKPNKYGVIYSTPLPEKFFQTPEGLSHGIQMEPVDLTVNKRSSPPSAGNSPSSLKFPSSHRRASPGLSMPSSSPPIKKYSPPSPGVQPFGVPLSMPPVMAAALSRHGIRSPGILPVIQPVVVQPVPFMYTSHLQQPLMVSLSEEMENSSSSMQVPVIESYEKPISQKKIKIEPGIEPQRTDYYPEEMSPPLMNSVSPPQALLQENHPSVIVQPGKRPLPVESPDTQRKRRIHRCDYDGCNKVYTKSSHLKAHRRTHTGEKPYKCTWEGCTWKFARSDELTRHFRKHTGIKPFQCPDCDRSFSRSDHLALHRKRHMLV
Technique: protein-binding microarray
Molecule type: hairpin DNA
Matrix: in vitro
Tested at: not given
Notes: whole hairpin DNA, median over replicate spots
Baseline: not given
Reading: higher = stronger binding
Sequence	median fluorescence [a.u.]
GAGGCCGACCGCGCCGAGCCTCCTGGCTCGGCGCGGTCGGCCTCACACTC	8530
GAGGCCGACCACCGCCAGCCTCCTGGCTGGCGGTGGTCGGCCTCACACTC (5mC at 13)	8130
GAGGCCGAACACGCCCAGCCTCCTGGCTGGGCGTGTTCGGCCTCACACTC	8710
GAGGCCCACCACGCCCAGCCTCCTGGCTGGGCGTGGTGGGCCTCACACTC	9240
GAGGCCGACCACCGCCAGCCTCCTGGCTGGCGGTGGTCGGCCTCACACTC (5mC at 31)	8520
GAGGCCGACCACCGCCAGCCTCCTGGCTGGCGGTGGTCGGCCTCACACTC (5mC at 13 31)	8470
GAGGCCGACCCCGCCCAGCCTCCTGGCTGGGCGGGGTCGGCCTCACACTC	8860

Block 4
Sequence: CCUG
Technique: RNA Bind-n-Seq
Molecule type: RNA
Matrix: in vitro
Notes: 4-mer, random 30-nt RNA, single round
Baseline: input library
Reading: higher = stronger binding
EIF4A1: Eukaryotic initiation factor 4A-I (EIF4A1, Homo sapiens, UniProt P60842, residues 1-406, full length assumed)
Chain of UniProt P60842 (whole entry, looked up): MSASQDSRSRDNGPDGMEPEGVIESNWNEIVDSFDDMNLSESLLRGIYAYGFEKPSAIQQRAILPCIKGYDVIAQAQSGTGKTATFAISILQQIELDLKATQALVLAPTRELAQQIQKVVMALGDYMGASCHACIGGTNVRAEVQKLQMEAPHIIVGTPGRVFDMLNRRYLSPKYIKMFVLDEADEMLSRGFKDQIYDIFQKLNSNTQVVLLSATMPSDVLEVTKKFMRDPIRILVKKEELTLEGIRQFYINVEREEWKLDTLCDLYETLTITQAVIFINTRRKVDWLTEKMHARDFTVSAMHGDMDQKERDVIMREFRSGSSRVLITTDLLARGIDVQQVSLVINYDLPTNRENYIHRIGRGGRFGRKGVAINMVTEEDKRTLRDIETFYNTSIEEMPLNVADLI
target	setting	4-mer enrichment
EIF4A1	90 pmol, added: 3 µM DMDA-PatA, 2 mM ADP, 2 mM phosphate	0.611 fold
EIF4A1	not given, added: RocA, ADP, phosphate	0.662 fold
EIF4A1	15 pmol, added: DMSO vehicle, 2 mM AMP-PNP	1.62 fold
ATP-dependent RNA helicase DDX3X, helicase core (DDX3X, Homo sapiens, UniProt O00571, residues 132-607)	not given, added: RocA, ADP, phosphate	0.752 fold

Block 5
Target: TAR DNA-binding protein 43, full length, His tag (TARDBP, Homo sapiens, UniProt Q13148, residues 1-414)
Technique: RNA Bind-n-Seq
Molecule type: RNA
Matrix: in vitro
Tested at: 20 nM
Notes: 6-mer, flanks averaged, single round
Added: 150 mM LiCl
Baseline: input library
Reading: higher = stronger binding
Sequence	6-mer enrichment (R)
CAACAG	0.816
GUUUCU	1.08
AGACAG	0.865
CGAAUA	0.827
AACUCC	1.03
UCCUUU	1.06
UCGACC	0.829
GAUCCG	0.874

Single results of other studies
Compound	cell line	assay	test system	setting	how to read	quantity	result
CC(=O)OC(C)OC(=O)C(C)c1ccc(-c2ccccc2)c(F)c1 (stereo not shown)	HEK-293T/ACE2	pseudovirus infection	VSV pseudotyped with SARS-CoV-2 spike	concentration not given	baseline: vehicle-treated	GFP-positive cells	81.1%

Some of these lines once more (block 1):
SMILES	inhibition
CC(=O)N(c1onc(C)c1C)S(=O)(=O)c1ccc(N)cc1	-4.62%
CNC(=O)N(C)N=O	1.6%
Cc1ncc(C)n2nc([C@@H]3C[C@H]3c3nc4c5cccnc5ccn4c3C)nc12	-0.63%
Cc1csc(-c2nnc(Nc3ccc(Oc4ncccc4-c4ccnc(N)n4)cc3)c3ccccc23)c1	5.51%
C#Cc1cccc2c1c(C(=O)c1ccc(Cn3c(C)nc4cnccc43)c(F)c1)cn2C(=O)N(C)C	-7%
